Measurements gathered from unrelated publications.
Protocols differ between the studies behind these lines. ≈ marks a conversion by molar mass, not a printed value.

SMILES	organism	test	test system	setting	endpoint	result
C1CNCCN1	influenza virus	viral replication	MDCK	72 h	IC50	> 10 µM
CCCCCCCCn1cc(CN2CCC3(CC2)OCCO3)c2ccc(OC)cc21	Mycobacterium tuberculosis variant bovis BCG	microbial growth	BCG		MIC50	1.5 µM (≈ 0.622 µg/mL)
CCCCCCCn1c2c([n+](CCCCC)c1C)C(=O)c1ccccc1C2=O	Mycobacterium tuberculosis variant bovis BCG	microbial growth	BCG	5 days	MIC90	≤ 0.3 µM
Nc1ncnc2c1ncn2C[C@H](O)CO	vesicular stomatitis virus	viral replication	HeLa		EC50	> 250 µM
CC(C)Nc1nccnc1C(=O)O	Mycobacterium tuberculosis variant bovis BCG	microbial growth	ATCC35734 BCG	5 days	IC50	< 100 µM
O=C1CCc2c(OC[C@]3(O)CCN(c4c(F)cc(Cl)cc4F)C[C@H]3O)ccc(F)c2N1	Mycobacteroides abscessus		ATCC 19977	1:1 CAMHB:human serum	IC50	17.5 µM
Cc1cnc(NC(=O)C2=C(O)c3ccccc3S(=O)(=O)N2C)s1	influenza virus	viral replication	MDCK	72 h	IC50	> 10 µM
O=C(O)c1ccncc1	Mycobacterium tuberculosis variant bovis BCG	microbial growth	ATCC35734 BCG	5 days	IC50	2700 µM
CCCc1ncc(C[n+]2ccccc2C)c(N)n1	influenza virus	viral replication	MDCK	72 h	IC50	> 10 µM
CCCCCCCC[n+]1c2c(n(CC(C)C)c1C)C(=O)c1ccccc1C2=O	Mycobacterium tuberculosis variant bovis BCG	microbial growth	BCG	5 days	MIC90	≤ 0.3 µM
CCOC(=O)C1=C(O)C(=O)N(Cc2ccccc2)C1	influenza virus	viral replication	MDCK	72 h	IC50	> 10 µM
Nc1ccn(C[C@@H](CO)OCP(=O)(O)O)c(=O)n1	vesicular stomatitis virus	viral cytopathic effect	HEL		EC50	> 250 µM
Cc1cccc(-c2nccnc2C(=O)O)c1	Mycobacterium tuberculosis variant bovis BCG	microbial growth	ATCC35734 BCG	5 days	IC50	800 µM
CCCOC(=O)C1=C(C)CS[C@@H]2[C@H](NC(=O)COc3ccccc3)C(=O)N12	Mycobacterium tuberculosis variant bovis BCG	microbial growth	BCG		MIC90	> 100 µg/mL
COC(=O)C(N)CS (stereo not shown)	influenza virus	viral replication	MDCK	72 h	IC50	> 10 µM
O=C(O)c1cnc2ccccc2n1	Mycobacterium tuberculosis variant bovis BCG	microbial growth	ATCC35734 BCG	5 days	IC50	700 µM

Excerpt of the above:
SMILES	organism	test	test system	setting	endpoint	result
Cc1cccc(-c2nccnc2C(=O)O)c1	Mycobacterium tuberculosis variant bovis BCG	microbial growth	ATCC35734 BCG	5 days	IC50	800 µM
CCCOC(=O)C1=C(C)CS[C@@H]2[C@H](NC(=O)COc3ccccc3)C(=O)N12	Mycobacterium tuberculosis variant bovis BCG	microbial growth	BCG		MIC90	> 100 µg/mL
